Measurements of several laboratories.
Compare with care: the assays were run in different laboratories. Values joined by “and” are separate records of one study, mostly repeats; a detail may differ. Numbers after ± are the reported error.

| Substance | tested on | test | system | setting | how to read | measurement | result |
| --- | --- | --- | --- | --- | --- | --- | --- |
| Polymyxin B | Staphylococcus aureus | DiSC3(5) fluorescence |  | concentration not given, 75 min | higher = more depolarisation | membrane depolarisation | 454 a.u. and 597 a.u. and 524 a.u. |
| CTCATTGTCT | Salmonella enterica serovar Typhimurium | RNA-seq, item: acnB (SL1344_0159) | peptide, SL1344 | 5 µM, 15 min | reference: water control | log2 fold change | -2.57 |
| colistin | Pseudomonas aeruginosa | broth microdilution | clinical isolate RKI-No_254/15 |  |  | MIC | 1 µg/mL |
| milbemycin oxime | Saccharomyces cerevisiae | cell growth | Pdr5 deleted, Cdr1 overexpressed | 2^-6.966 µg/mL, with: fluconazole 10 µg/mL |  | OD600 | 0.853 and 0.894 and 0.709 |
| CTCATAGACT | Salmonella enterica serovar Typhimurium | RNA-seq, item: lipA (SL1344_0621) | peptide, SL1344 | 5 µM, 15 min | reference: water control | log2 fold change | -2.33 |
| Phosphate | Saccharomyces cerevisiae | cell growth, OD600 after 22 h | PfPiT-expressing strain | with: 93 mM NaH2PO4 |  | EC50 | 17 ± 1 mM |
| GACATACTCT | Salmonella enterica serovar Typhimurium | RNA-seq, item: gnd (SL1344_2058) | peptide, SL1344 | 5 µM, 15 min | reference: water control | log2 fold change | -2.29 |
| Nisin | Bacillus subtilis | bacterial cytological profiling | ATCC 6633 | concentration not given |  | cell area | 1.1 µm² and 0.9 µm² and 1.2 µm² |
| proteasome subunit beta-1 (human) | CYB5R4 knockout human cells | PP6 interaction, 3xFLAG-PP6C IP-MS |  | concentration not given | reference: CYB5R4 KO over parental | log2 fold change | 2.96 |
| CTGTTACTCT | Salmonella enterica serovar Typhimurium | RNA-seq, item: pflA (SL1344_0907) | peptide, SL1344 | 5 µM, 15 min | reference: water control | log2 fold change | -1.18 |
| gentamicin sulfate | Staphylococcus aureus |  | ATCC 43300, resistant | 18 h, 37 °C, dark |  | MIC | 128 µM |
| aprotinin | Taenia solium | trypan blue uptake | cysts | 50 µg/mL |  | cysticidal efficacy | 0% |
| human MSH6 | CYB5R4 knockout human cells | PP4 interaction, 3xFLAG-PP4C IP-MS |  | concentration not given | reference: CYB5R4 KO over parental | log2 fold change | -3.14 |
| CTCTAACTCT | Salmonella enterica serovar Typhimurium | RNA-seq, item: SL1344_0983 | peptide, SL1344 | 5 µM, 15 min | reference: water control | log2 fold change | 1.05 |
| colistin | Pseudomonas aeruginosa |  | PA1120 PER-producing isolate |  |  | MIC | 2 µg/mL |
| GCCATGCTTT (PNA, CPP-conjugated) | Salmonella enterica serovar Typhimurium |  | peptide, SL1344 | 18 h |  | MIC | 10 µM |
| CTCAATCTCT | Salmonella enterica serovar Typhimurium | RNA-seq, item: parC (SL1344_3148) | peptide, SL1344 | 5 µM, 15 min | reference: water control | log2 fold change | -1.08 |
| heparin | Plasmodium falciparum | parasite growth | Dd2 | 12.5 µg/mL, 72 h |  | inhibition | > 50% |
| TCATCCGCTG (PNA, CPP-conjugated) | Salmonella enterica serovar Typhimurium |  | peptide, SL1344 | 10 µM, 8 h | reference: untreated | log reduction | 5.94 log CFU/mL |
| Polymyxin B | Pseudomonas aeruginosa |  | ATCC 27853 | 62.5 µg per disc, 24 h, 37 °C |  | inhibition zone diameter | 10 mm |
| colistin | Klebsiella pneumoniae |  | 9904, RPMI 1640 10% FBS | 18 to 24 h, 37 °C |  | MIC | 40 µM |
| CTTTCATGCG (PNA, CPP-conjugated) | Salmonella enterica serovar Typhimurium | item: CFU | peptide, SL1344, Caenorhabditis elegans infection model, worms | 4 × MIC, 24 h | reference: untreated | bacterial load reduction | 96.2% |
| polymyxin M1 | Pseudomonas aeruginosa | broth microdilution | ATCC 27853 | with: Survanta 10% (2.5 mg/mL phospholipid) | reference: without surfactant | MIC fold increase | 2 fold |
